Experimental data gathered from unrelated publications.
Protocols differ between the studies behind these lines.

| Compound | assay | system | setting | how to read | stability |
| --- | --- | --- | --- | --- | --- |
| CN(CCC#N)C1CCN(C(=O)Cn2cc(NC(=O)c3cnn4cccnc34)c(-c3cc(Cl)ccc3OC(F)F)n2)CC1 | – | human plasma | 24 h, room temperature | – | stable |
| CC[C@@H]([C@H](C)O)n1ncn(-c2ccc(N3CCN(c4ccc(OC[C@@H]5CO[C@@](Cn6cncn6)(c6ccc(F)cc6F)C5)cc4)CC3)cc2)c1=O | – | rat plasma | autosampler, freeze-thaw, short- and long-term storage | – | stable |
| CC[C@@H](C)[C@@H](N)C(=O)N[C@@H](CC(C)C)C(=O)N[C@@H](CCCNC(=N)N)C(=O)N[C@@H](Cc1c[nH]c2ccccc12)C(=O)N[C@@H](CO)C(=O)N[C@@H](CCCNC(=N)N)C(=O)N[C@@H](CCCCN)C(=O)N[C@@H](CC(C)C)C(=O)N1CCC[C@H]1C(N)=O | – | human plasma | – | time remaining stable | > 8 h |
| O=C(N/N=C/c1ccccc1O)c1ccncc1 | – | DMEM cell medium | 4 µM, 12 h, 5 °C, post-preparative, autosampler | – | 97.4% |
| CCC[C@H](N[C@@H](C)C(=O)N1[C@H](C(=O)O)C[C@@H]2CCCC[C@@H]21)C(=O)O | – | human plasma | 0.5 ng/mL, 30 h, 8 °C, autosampler, low QC | – | 97.3% |
| CNC(=O)c1ccc(-c2cnc3ncc(Cc4ccc5ncccc5c4)n3n2)cc1F | – | human plasma | 24.7 h, ambient | – | ≥ 24.7 h |
| O=C(NCCN1CCCC1)c1cc(-c2ccc(CN3CCOCC3)cc2)nc2ccc(F)cc12 | – | – | 40 °C | – | > 25 weeks |
| Cc1ccc(CNC(=O)c2cc(/C=C/C(=O)O)cc(-c3ccc4ncnn4c3)c2)cc1 | – | simulated gastric fluid | 1 h | – | stable |
| O=C(NCCc1c[nH]c2ccccc12)C(=O)c1c[nH]c2ccc(F)cc12 | – | – | up to 48 h, pH 4.5 | – | stable |
| Cc1ccc(S(=O)(=O)n2cc3c4c2C(=O)C(NCc2ccc(Cl)cc2)=CC4=NCC3)cc1 | HPLC-MS/MS | rat plasma | – | – | stable |
| C=C(NC(=O)c1csc(-c2nc3c(cc2O[C@@H]2O[C@H](CO)[C@@H](O)[C@H](O)[C@H]2O)-c2nc(cs2)C(=O)N[C@@H]([C@@H](C)O)C(=O)N/C(=C\C)c2nc(cs2)C(=O)N[C@H]2C[C@H](O)C(=O)OCc4cccc5[nH]c(c(C)c45)C(=O)SC[C@H](NC(=O)c4csc2n4)c2nc-3cs2)n1)C(N)=O | HPLC | – | 24 h, pH 2.0–7.0, 25 °C | – | stable |

Some of these lines once more:
| Compound | assay | system | setting | how to read | stability |
| --- | --- | --- | --- | --- | --- |
| CCC[C@H](N[C@@H](C)C(=O)N1[C@H](C(=O)O)C[C@@H]2CCCC[C@@H]21)C(=O)O | – | human plasma | 0.5 ng/mL, 30 h, 8 °C, autosampler, low QC | – | 97.3% |
